Assay results gathered from unrelated publications.
Each numbered part is a random draw from the data of one study; scales do not carry over between parts.
Chain of UniProt P35367 (whole entry, looked up): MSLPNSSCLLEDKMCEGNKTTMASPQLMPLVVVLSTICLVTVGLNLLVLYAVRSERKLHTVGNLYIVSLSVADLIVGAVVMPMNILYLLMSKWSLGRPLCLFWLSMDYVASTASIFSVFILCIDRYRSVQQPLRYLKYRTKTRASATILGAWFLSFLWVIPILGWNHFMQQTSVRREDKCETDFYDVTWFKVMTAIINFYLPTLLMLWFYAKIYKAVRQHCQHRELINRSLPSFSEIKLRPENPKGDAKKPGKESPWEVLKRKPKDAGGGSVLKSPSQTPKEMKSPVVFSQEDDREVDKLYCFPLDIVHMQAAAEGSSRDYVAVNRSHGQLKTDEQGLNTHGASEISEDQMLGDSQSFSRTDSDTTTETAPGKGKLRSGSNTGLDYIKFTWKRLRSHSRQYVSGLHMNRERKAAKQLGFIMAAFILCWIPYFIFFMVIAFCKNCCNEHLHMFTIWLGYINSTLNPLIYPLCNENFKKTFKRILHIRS
Chain of UniProt P49841 (whole entry, looked up): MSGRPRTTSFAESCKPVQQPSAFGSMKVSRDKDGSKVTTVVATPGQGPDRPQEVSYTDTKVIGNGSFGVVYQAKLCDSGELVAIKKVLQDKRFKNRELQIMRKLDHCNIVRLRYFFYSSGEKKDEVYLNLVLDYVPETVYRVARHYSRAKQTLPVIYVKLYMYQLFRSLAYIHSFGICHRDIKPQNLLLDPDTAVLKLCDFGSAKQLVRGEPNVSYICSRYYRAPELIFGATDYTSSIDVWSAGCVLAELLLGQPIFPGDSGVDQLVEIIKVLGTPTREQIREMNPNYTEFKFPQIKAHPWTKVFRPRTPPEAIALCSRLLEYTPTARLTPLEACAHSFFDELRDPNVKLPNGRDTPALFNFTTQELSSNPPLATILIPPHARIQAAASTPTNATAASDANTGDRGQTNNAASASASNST

Study 1 — technique: RNA Bind-n-Seq; molecule type: RNA; matrix: in vitro; tested at: 365 nM; baseline: no-protein control; direction: higher = stronger binding
Target: RNA binding protein fox-1 homolog 2, RRM domain, GST-SBP tag (RBFOX2, Homo sapiens, UniProt O43251-10, residues 100-194)
Setting: natural RNA segment, single round, ends assumed
Constant ends, left off below: GGGAGUUCUACAGUCCGACGAUC … UGGAAUUCUCGGGUGCCAA
Residues (chain): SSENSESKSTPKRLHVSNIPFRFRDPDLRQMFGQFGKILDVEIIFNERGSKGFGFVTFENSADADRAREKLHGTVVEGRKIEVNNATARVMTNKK
Strand | RBNS enrichment (R)
CAUUCUGCUGAAAAUUUAAAACAGAGGGAGGAAAAAGGUGUUAUGCCUAUGUAUGGGGGGGGGGCGGUAGUGGAGUGAGGUGUUAUGUCAUGAGCAUUCAGAUUGCUGAA | 1.58
CCCAGGUCCAGGCCCUGUGUAAGGGCUUGCAGCCUGUCUCUGCUGUCCACCCUGCAGUGCUCACUUUAAACACAGGUCUCUAGGAGACCCUGGGAAACACACCAAUCACC | 0.205
AAGAAAAUGAGGAGAACACUUUGUAUUUACCCCAAAAUCUUUUCAGUUGUGGGUUUGUAGGUGCGAGUUUGAAGAGGAAAAGAGGAAGGGGGUUAUAUUUCUAAGUGAUU | 2.36
CUUAUUUAUAAAAGGAUGAUGGCUGUAUUUUGAGUUUCUGCUGGAAACUUCCAUAAGGGGCAGCAGUUGAGGUUGGGUAGUGCUGGGCCCAGCUGAGCUGGCCUGGGAAA | 0.737
GCUUGCAGAAGCCAUCCAUUCACUCCUGGGGUGCAGGGCACGCAAGAGAGCUUCCCAUUGCUUCUGCUCUCCUCAGAGGUCCCGGGCUGGAUGGAGGCUGGUACUUACCC | 1.04
CAUAUUUUAAAUGUUUGAAAAAGAGUCACUAACAAAGUGGAUUUUAUUUUAAAGCAGAUUUCUUCAGAAGCUAUCAUGGUCCCAGGGACUAGGUAGAAUUUUUAAGUCUA | 0.36
AAGCUGAAGACUCCAGACACUGUCUGUGUGACUGUAACAUUUCUUCAAGGAAAGUAUAGCGUCUAUGGAGUUCAGAGGGCACGUGUUUGGGGGAAAAUAUAUAUGACAUG | 0.774
CUGGAAAUAGUUCAUCAAGUAUGUUUGUUGCUCAUUGUGAUACAUUAAAAACUGUAUCUACAUAUUUACUAUGUGUUUUCUUUCUGAGUUGACUUUGCAAUAUUUGCACA | 0.566

Study 2 — technique: protein-binding microarray; molecule type: double-stranded DNA, one strand shown; matrix: in vitro; tested at: not given; direction: higher = stronger binding
Target: Hepatocyte nuclear factor 3-beta, forkhead domain (FOXA2, Homo sapiens, UniProt Q9Y261, residues 142-269)
Setting: k-mer, scored over probes, only values ≥0.25
Construct (chain): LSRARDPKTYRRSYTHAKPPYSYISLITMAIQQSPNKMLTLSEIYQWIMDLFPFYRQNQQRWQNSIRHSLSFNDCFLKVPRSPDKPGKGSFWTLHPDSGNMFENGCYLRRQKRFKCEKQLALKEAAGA
Strand | E-score
ATGTGTTA | 0.392
GAGATACA | 0.264
ATAATAAT | 0.309
AGGGTATA | 0.287
ATACAATA | 0.321
ATATGTTG | 0.347
AACATAAC | 0.317
AACAAATA | 0.419

Single results of other studies
SMILES | target | test | setting | scale | endpoint | result
CN(C)C(=O)Cn1cc(-c2nc(C3(c4ccc(-c5cnc(N)nc5)cc4)CC3)no2)cn1 | Histamine H1 receptor (HRH1, Homo sapiens, UniProt P35367) | cell-free assay | 10 µM |  | inhibition | 8.78%
CN(C)S(=O)(=O)c1ccc2c(c1)/C(=C/c1cc3c([nH]1)CCCC3)C(=O)N2 | Glycogen synthase kinase-3 beta (GSK3B, Homo sapiens, UniProt P49841) | enzyme activity, inhibitor | 0.5 µM | baseline: control | remaining activity | 95.6%
